Measured values collected from several papers.
Lines come from different studies, so protocols differ. Several values in a cell are separate wells, animals, samples, runs or records. ± marks the error that the study gave.
PSMB6: Proteasome subunit beta type-6 (PSMB6, Homo sapiens, UniProt P28072)
Sequence of UniProt P28072 (whole entry, looked up): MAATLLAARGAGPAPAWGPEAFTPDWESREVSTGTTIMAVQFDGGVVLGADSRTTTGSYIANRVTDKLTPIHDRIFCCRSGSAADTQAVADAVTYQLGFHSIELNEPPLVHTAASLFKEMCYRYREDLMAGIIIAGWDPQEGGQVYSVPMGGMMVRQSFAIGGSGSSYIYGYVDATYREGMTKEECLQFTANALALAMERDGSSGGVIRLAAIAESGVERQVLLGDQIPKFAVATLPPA
ABCG2: Broad substrate specificity ATP-binding cassette transporter ABCG2 (ABCG2, Homo sapiens, UniProt Q9UNQ0)
Sequence of UniProt Q9UNQ0 (whole entry, looked up): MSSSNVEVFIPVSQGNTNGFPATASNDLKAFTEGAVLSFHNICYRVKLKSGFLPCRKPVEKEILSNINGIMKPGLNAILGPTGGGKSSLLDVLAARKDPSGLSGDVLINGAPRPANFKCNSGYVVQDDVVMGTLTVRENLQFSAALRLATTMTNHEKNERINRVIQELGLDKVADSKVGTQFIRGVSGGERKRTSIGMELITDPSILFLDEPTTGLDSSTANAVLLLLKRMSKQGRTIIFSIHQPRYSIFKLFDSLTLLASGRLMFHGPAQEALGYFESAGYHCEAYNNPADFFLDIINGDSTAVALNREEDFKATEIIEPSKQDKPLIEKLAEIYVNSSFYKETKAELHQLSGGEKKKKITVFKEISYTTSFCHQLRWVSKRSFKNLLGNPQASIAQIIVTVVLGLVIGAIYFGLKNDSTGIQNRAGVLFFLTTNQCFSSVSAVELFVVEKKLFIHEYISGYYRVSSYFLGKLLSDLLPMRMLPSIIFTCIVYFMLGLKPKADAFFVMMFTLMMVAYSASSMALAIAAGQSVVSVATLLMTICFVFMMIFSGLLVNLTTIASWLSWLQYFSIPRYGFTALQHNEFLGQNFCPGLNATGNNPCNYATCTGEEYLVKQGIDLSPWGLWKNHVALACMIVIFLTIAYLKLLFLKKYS
KCNH2: Voltage-gated inwardly rectifying potassium channel KCNH2 (KCNH2, Homo sapiens, UniProt Q12809)
Sequence of UniProt Q12809 (whole entry, looked up): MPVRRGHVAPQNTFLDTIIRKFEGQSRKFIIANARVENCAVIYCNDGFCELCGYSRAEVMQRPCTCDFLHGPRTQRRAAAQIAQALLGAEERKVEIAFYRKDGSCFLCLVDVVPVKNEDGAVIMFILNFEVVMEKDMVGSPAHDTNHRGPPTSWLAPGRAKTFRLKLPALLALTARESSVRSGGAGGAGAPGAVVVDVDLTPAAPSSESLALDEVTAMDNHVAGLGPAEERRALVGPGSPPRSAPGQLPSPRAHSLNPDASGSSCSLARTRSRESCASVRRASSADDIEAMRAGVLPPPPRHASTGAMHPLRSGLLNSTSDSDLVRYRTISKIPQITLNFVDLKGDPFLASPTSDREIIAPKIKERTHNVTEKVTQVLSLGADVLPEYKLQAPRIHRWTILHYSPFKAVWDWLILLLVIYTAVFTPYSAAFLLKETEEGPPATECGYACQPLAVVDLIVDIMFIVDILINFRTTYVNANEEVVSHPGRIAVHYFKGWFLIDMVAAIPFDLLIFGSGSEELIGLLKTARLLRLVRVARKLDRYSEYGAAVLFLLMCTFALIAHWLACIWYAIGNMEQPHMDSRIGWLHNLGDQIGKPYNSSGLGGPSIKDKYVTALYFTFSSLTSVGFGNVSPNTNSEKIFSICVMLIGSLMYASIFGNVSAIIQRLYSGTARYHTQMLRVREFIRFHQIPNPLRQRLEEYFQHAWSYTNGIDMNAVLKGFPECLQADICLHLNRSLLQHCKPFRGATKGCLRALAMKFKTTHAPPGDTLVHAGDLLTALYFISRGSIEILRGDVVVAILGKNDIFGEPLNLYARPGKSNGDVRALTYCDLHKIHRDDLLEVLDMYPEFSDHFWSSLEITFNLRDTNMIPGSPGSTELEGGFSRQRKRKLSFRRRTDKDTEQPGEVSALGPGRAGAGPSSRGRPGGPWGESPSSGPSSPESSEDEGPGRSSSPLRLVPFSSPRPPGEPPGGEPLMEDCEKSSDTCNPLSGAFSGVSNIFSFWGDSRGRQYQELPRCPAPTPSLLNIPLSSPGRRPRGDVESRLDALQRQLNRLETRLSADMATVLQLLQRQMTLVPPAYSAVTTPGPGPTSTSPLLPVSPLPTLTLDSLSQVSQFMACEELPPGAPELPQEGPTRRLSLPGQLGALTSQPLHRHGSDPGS
Toll-like receptor 3: Toll-like receptor 3 (Homo sapiens, UniProt O15455)
Sequence of UniProt O15455 (whole entry, looked up): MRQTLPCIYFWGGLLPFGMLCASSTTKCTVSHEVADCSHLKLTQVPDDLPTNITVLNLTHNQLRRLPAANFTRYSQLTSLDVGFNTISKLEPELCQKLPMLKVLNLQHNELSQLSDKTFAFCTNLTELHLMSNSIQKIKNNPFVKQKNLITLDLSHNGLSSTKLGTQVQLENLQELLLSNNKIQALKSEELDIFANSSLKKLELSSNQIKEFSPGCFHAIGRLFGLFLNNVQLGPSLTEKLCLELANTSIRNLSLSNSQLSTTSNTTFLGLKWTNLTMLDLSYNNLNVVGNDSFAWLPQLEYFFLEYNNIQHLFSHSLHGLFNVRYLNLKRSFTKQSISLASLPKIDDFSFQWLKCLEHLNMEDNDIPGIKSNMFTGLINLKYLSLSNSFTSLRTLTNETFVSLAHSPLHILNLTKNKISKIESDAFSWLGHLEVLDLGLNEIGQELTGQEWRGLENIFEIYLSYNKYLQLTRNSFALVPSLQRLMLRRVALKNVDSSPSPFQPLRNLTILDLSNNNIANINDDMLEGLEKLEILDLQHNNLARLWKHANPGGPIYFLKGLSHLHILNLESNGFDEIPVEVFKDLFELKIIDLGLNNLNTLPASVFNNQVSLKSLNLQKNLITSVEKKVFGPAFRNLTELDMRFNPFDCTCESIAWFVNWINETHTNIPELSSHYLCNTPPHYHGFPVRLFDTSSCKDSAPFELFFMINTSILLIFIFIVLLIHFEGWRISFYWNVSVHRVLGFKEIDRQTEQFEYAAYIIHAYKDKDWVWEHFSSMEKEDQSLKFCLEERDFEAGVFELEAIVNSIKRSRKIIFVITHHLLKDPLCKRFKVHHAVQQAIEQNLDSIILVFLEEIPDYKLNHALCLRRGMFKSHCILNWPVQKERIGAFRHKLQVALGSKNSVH
CSF1R: Macrophage colony-stimulating factor 1 receptor (CSF1R, Homo sapiens, UniProt P07333)
Sequence of UniProt P07333 (whole entry, looked up): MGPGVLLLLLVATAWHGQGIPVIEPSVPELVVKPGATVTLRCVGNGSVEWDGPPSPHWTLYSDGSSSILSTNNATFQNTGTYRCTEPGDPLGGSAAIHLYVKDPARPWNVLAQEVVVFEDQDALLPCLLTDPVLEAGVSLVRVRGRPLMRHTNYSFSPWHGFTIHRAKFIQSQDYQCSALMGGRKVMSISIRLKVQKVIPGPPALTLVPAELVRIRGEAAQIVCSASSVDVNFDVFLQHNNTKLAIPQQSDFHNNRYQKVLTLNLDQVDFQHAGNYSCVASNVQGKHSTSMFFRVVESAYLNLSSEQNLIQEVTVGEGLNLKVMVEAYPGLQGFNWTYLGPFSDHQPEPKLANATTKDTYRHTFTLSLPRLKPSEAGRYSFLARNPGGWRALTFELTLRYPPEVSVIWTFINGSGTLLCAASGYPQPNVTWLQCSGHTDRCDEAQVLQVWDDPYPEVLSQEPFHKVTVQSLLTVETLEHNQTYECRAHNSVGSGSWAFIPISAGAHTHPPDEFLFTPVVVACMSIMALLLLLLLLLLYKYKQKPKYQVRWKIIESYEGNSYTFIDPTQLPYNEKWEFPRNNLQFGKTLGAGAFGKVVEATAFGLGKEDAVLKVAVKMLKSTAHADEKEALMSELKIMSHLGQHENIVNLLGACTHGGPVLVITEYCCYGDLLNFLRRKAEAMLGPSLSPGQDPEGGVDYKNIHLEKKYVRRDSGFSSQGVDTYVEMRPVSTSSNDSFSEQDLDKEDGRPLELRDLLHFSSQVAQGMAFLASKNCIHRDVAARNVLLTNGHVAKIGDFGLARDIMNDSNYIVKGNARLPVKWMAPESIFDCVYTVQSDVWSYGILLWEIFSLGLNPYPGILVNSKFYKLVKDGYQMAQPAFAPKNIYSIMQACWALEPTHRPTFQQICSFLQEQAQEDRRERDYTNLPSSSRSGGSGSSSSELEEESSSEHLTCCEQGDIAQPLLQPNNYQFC
CYP2A6: Cytochrome P450 2A6 (CYP2A6, Homo sapiens, UniProt P11509)
Sequence of UniProt P11509 (whole entry, looked up): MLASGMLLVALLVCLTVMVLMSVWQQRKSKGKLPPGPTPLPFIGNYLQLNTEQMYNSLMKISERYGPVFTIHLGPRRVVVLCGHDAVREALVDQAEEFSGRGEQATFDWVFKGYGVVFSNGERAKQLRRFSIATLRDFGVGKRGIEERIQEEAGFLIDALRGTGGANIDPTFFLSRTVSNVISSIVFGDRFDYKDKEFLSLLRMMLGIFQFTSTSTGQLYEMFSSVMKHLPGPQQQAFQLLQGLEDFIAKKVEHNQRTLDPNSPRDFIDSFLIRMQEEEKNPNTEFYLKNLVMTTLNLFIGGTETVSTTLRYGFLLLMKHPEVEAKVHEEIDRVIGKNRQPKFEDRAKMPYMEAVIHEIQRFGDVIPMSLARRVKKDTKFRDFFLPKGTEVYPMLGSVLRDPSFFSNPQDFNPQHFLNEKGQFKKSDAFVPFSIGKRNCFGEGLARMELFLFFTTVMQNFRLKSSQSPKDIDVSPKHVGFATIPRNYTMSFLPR
CA1: Carbonic anhydrase 1 (CA1, Homo sapiens, UniProt P00915)
Sequence of UniProt P00915 (whole entry, looked up): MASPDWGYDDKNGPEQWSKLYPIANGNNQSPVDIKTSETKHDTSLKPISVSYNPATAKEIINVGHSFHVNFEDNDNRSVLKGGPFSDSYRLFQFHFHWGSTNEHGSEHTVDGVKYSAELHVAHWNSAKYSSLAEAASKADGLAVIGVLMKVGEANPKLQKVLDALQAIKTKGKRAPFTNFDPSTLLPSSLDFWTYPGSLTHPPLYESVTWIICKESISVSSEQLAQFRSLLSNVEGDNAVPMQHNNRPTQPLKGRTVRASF
Sequence of UniProt Q96S44 (whole entry, looked up): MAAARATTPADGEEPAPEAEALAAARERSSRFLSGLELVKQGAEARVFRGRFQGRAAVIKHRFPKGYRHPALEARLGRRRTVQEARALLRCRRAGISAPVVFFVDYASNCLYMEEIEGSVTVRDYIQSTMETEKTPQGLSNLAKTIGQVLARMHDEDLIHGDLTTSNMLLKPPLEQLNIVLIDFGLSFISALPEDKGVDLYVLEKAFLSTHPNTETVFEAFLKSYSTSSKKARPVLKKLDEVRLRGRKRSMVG

OC1(c2ccc(Cl)cc2)CCN(Cc2c[nH]c3ccccc23)CC1
IC50 (CatSper channel complex (Homo sapiens, UniProt Q7RTX7+Q86XQ3+Q8NEC5+Q96P56); calcium influx, inhibitor, FLIPR; human sperm; added: high pH, high potassium): 12 µM

O=C(O)CCC(=O)c1ccc2c(c1)CCC(=O)N2
Kd (Ubiquitin carboxyl-terminal hydrolase 49, ZnF-UBD domain (USP49, Homo sapiens, UniProt Q70CQ1)): 99.9 µM

CC(C)(/C=C(\C#N)C(=O)N1CCC[C@@H](n2nc(-c3ccc(Oc4ccccc4)cc3F)c3c(N)ncnc32)C1)N1CCN(C2COC2)CC1
IC50 (Tyrosine-protein kinase CSK (CSK, Homo sapiens, UniProt P41240)): 0.186 µM

Cc1cc(OC(C)C)ccc1C(=O)C(C)(C)NC(=O)c1sccc1C
IC50 (mitochondrial complex I-III (NADH-cytochrome c oxidoreductase), Botrytis cinerea; enzyme activity, inhibitor; mitochondrial fraction): > 1 µg/mL

Cc1ncc(C(=O)N[C@@H](CC(C)C)C(=O)N[C@@H](CCC2CCCCC2)C(=O)N[C@H](/C=C/S(C)(=O)=O)Cc2ccc(CN)cc2)s1
IC50 (PSMB6; competitive ABPP; Raji cell lysate): > 10 µM

Cc1nc(F)ccc1-c1cc(C(=O)NCc2ccc(Cl)c(Cl)c2)ccc1Cn1ccn(C)c1=N
IC50 (WD repeat-containing protein 5, MLL1 complex (WDR5, Homo sapiens, UniProt P61964); MLL1 methyltransferase activity, inhibitor; added: H3 peptide substrate): > 3 µM

Nc1ncnc2c1ncn2C1CCCC1
IC50 (Inositol-tetrakisphosphate 1-kinase (Homo sapiens, UniProt Q13572); phosphatase activity, inhibitor, radiometric): 1.7 ± 0.2 µM

COc1ccc(C[C@H](NC(=O)[C@H](C)NC(=O)CN2CCOCC2)C(=O)N[C@@H](CC2CCC(C3CCCCC3)CC2)C(=O)[C@@]2(C)CO2)cc1 (stereo partly shown)
IC50 (PSMB6; competitive ABPP; Raji cell lysate): > 10 µM

Nc1ccn([C@@H]2O[C@H](COP(=O)(O)OP(=O)(O)OP(=O)(O)O)[C@@H](O)[C@H]2O)c(=O)n1
IC50 (dGTP triphosphohydrolase (Leeuwenhoekiella blandensis, UniProt A3XHN1); dGTPase activity, inhibitor, enzyme-coupled; added: 1 mM dGTP): ~3200 µM

O=C1CC[C@H](N2Cc3cc(N4CCN(CC5CCN(c6ccc([C@@H]7c8ccc(O)cc8CC[C@@H]7c7ccccc7)cc6)CC5)CC4)ccc3C2=O)C(=O)N1
IC50 (ABCG2; inhibitor): 4.9 µM

COc1cc2oc(=O)cc(C)c2cc1CCC(=O)O
Kd (Ubiquitin carboxyl-terminal hydrolase 20, ZnF-UBD domain (USP20, Homo sapiens, UniProt Q9Y2K6)): 465 µM

Cc1ncc(C(=O)N[C@@H](CC2CCC(C)CC2)C(=O)N[C@@H](CC(C)C)C(=O)N[C@H](/C=C/S(C)(=O)=O)Cc2ccc(CN)cc2)s1 (stereo partly shown)
IC50 (PSMB6; competitive ABPP; Raji cell lysate): > 10 µM

Cc1ccc(S(=O)(=O)n2cc(/C=N/NC(=S)Nc3c(C)cccc3C)c3ccccc32)cc1
IC50 (mushroom tyrosinase; enzyme activity, inhibitor; added: L-DOPA substrate): 9.5 ± 0.26 µM

CN1CCN(c2cnc3c(cc(C(=O)NCc4ccc(Cl)cc4)c(=O)n3CC(=O)N3CC(C)(F)C3)n2)C1=O
IC50 (KCNH2; ion current, automated patch clamp; CHO expressing hERG): > 30 µM and 33 µM

COc1cc(C(=O)NS(=O)(=O)c2ccccc2C)ccc1Cc1cn(C)c2ccc(NC(=O)OC3CCCC3)cc12
IC50 (LRRC8A/LRRC8C (Homo sapiens, UniProt Q8IWT6+Q8TDW0, Y124F/Y126F); ion current, inhibitor, whole-cell patch clamp; HCT116 LRRC8-/- transfected; at -100 mV): 18.5 µM

O=c1nc(SCc2cc(F)cc(C(F)(F)F)c2)nc(SCc2ccc3sccc3c2)[nH]1
IC50 (DNA topoisomerase 2-alpha (TOP2A, Homo sapiens, UniProt P11388); ATPase activity, inhibitor, competitive ATPase; added: 0.25 mM ATP): 11.9 µM

Cc1ncc(C(=O)N[C@@H](CC(C)C)C(=O)N[C@@H](CC(C)C)C(=O)N[C@H](/C=C/S(C)(=O)=O)Cc2ccc(CN)cc2)s1
IC50 (PSMB6; competitive ABPP; Raji cell lysate): > 10 µM

Cc1ccc(S(=O)(=O)n2cc(/C=N/NC(=S)Nc3ccc(F)cc3)c3ccccc32)cc1
IC50 (mushroom tyrosinase; enzyme activity, inhibitor; added: L-DOPA substrate): 21.4 ± 0.48 µM

CCn1c(-c2nc3cc(C(=O)N4CCC[C@@H](N)C4)cc(OC)c3n2C)cc2cccnc21
IC50 (5-hydroxytryptamine receptor 1B (HTR1B, Homo sapiens, UniProt P28222); antagonist, GTPγS binding): > 31.6 µM

O=C(CCc1ccc(O)cc1)c1c(O)cc(O)cc1O[C@@H]1O[C@H](CO)[C@@H](O)[C@H](O)[C@H]1O
IC50 (mushroom tyrosinase; enzyme activity, inhibitor; 10 min, added: L-tyrosine): > 400 µg/mL

Cc1c2ccncc2c(C)c2c1[nH]c1ccc(OCc3ccccc3)cc12
IC50 (Toll-like receptor 3; reporter gene, inhibitor; HEK-Blue hTLR3; added: poly(I:C)): 11.5 ± 1.42 µM

COc1ccc(C[C@H](NC(=O)[C@H](C)NC(=O)CN2CCOCC2)C(=O)N[C@@H](CC2CCC(C)CC2)C(=O)[C@@]2(C)CO2)cc1 (stereo partly shown)
IC50 (PSMB6; competitive ABPP; Raji cell lysate): > 10 µM

Cc1cc2c(F)c(Oc3ncnn4cc(OC[C@@H](C)O)c(C)c34)ccc2[nH]1
IC50 (ABCG2; inhibitor; 1 h): 9.61 µM

Cc1cnc(-c2ccc(-c3ccc(NC(=O)Nc4c(F)cc(F)cc4F)cc3F)c3c2C(=O)NC3)[nH]1
IC50 (CSF1R; kinase activity, inhibitor, cell-free; 90 min, 28 °C, added: ATP): 0.00062 µM

CC1(C)CN(C(=O)Cn2c(=O)c(C(=O)NCc3ccc(Cl)cc3)cc3nccnc32)C1
IC50 (KCNH2; ion current, automated patch clamp; CHO expressing hERG): 4.9 µM

O=C(Nc1ccc(-c2nc3ccccc3[nH]2)cc1)c1cccc(Cl)c1
IC50 (Tyrosine-protein kinase SYK, with FCER1G (SYK, Homo sapiens, UniProt P43405); inhibitor, TR-FRET; counter screen): > 100 µM

COc1ccc2c3c([nH]c2c1)[C@H](CC(C)C)N1C(=O)[C@H](CC(=O)NC(C)(C)C)NC(=O)[C@@H]1C3
IC50 (ABCG2; inhibitor, measured: protoporphyrin IX; A549; 2 h, added: 1 mM ALA): 0.39 µM and 0.13 µM and 0.09 µM

CN1CCN(c2ccc(Nc3ncc4cc(C#N)c(=O)n(C5CCCC5)c4n3)cc2)CC1
IC50 (CSF1R): < 0.001 µM

c1cc2c3c(cccc3c1)CC2
IC50 (CYP2A6; enzyme activity, inhibitor; 20 min, pH 7.4): 29 µM

Nc1nonc1-n1cc(C(=O)N/N=C/c2cc(Cl)cc(C(F)(F)F)c2)nn1
IC50 (NAD-dependent protein deacylase sirtuin-6 (SIRT6, Homo sapiens, UniProt Q8N6T7); H3K9Ac deacetylation, inhibitor): 9.15 ± 0.21 µM

CC[C@@H]1[C@H](F)C(=O)N[C@@H]1COc1nccc2cc(C(N)=O)c(OC)cc12
IC50 (EKC/KEOPS complex subunit TP53RK (TP53RK, Homo sapiens, UniProt Q96S44); ATP-site binding, ActivX kinase profiling; THP-1 cell lysate; PRPK ATP-loop probe peptide): 3.3 µM

Cc1ccc(S(=O)(=O)n2cc(/C=N/NC(=S)Nc3cc(C)cc(C)c3)c3ccccc32)cc1
IC50 (mushroom tyrosinase; enzyme activity, inhibitor; added: L-DOPA substrate): 20.6 ± 0.35 µM

c1ccc(CN(Cc2ccccn2)C(c2ccccn2)c2ccccn2)nc1
IC50 (Proteasome subunit beta type-6, caspase-like site (PSMB6, Homo sapiens, UniProt P28072); caspase-like activity, inhibitor, purified 20S proteasome; pH 7.4, added: 20 µM Z-LLE-AMC): > 1000 µM

Cc1c2ccncc2c(C)c2c1[nH]c1ccc(C=O)cc12
IC50 (Toll-like receptor 3; reporter gene, inhibitor; HEK-Blue hTLR3; added: poly(I:C)): 6.78 ± 1.55 µM

Cc1cnc(-c2ccc(-c3ccc(NC(=O)Nc4c(F)cc(F)cc4F)cc3F)c3c2C(=O)NC3)[nH]1
IC50 (Vascular endothelial growth factor receptor 1 (FLT1, Homo sapiens, UniProt P17948); enzyme activity, inhibitor, mobility shift; added: ATP 1 mM): 0.208 µM

CCOc1cc(-c2nncn2C)ccc1Nc1ncc2cc(C)nc(NCC(C)(C)C)c2n1
IC50 (CYP2A6; enzyme activity, inhibitor): > 50 µM

Cc1ncc(C(=O)N[C@@H](CC(C)C)C(=O)N[C@@H](CC2CCCC3CCCCC32)C(=O)N[C@H](/C=C/S(C)(=O)=O)Cc2ccc(CN)cc2)s1 (stereo partly shown)
IC50 (PSMB6; competitive ABPP; Raji cell lysate): > 10 µM

Cc1nc(F)ccc1-c1cc(Cn2ccn(C)c2=N)cc(C(=O)NCc2ccc(Cl)c(Cl)c2)c1
IC50 (WD repeat-containing protein 5, SETD1B complex (WDR5, Homo sapiens, UniProt P61964); SETD1B methyltransferase activity, inhibitor; added: core histones substrate): > 20 µM

Cc1nc2ccc(Cl)cc2c(=O)n1NC1=NC(=O)CS1
IC50 (Phospholipase A2 group V (PLA2G5, Homo sapiens, UniProt P39877); enzyme activity, inhibitor, colorimetric): 68 ± 1.41 µM

C[C@H](O)[C@H](O)[C@H]1CNc2nc(N)[nH]c(=O)c2N1
IC50 (ABCG2; inhibitor; estimated): 778 µM

COc1ccc(NC(=S)N/N=C/c2ccc(N3CCC(O)CC3)cc2)cc1
IC50 (CA1; enzyme activity, inhibitor): 0.633 µM

Cc1nn(C)c2ncc(C(=O)NCC3CC(Br)=NO3)c(Cl)c12 (stereo not shown)
IC50 (Malate dehydrogenase, mitochondrial (MDH2, Sus scrofa, UniProt P00346); enzyme activity, reporter counter-screen; native enzyme): > 63 µM

CCS(=O)(=O)N1CCN(c2ccc(Nc3ncc(C(N)=O)c(NC4CC4)n3)cc2)CC1
IC50 (Tyrosine-protein kinase SYK (SYK, Homo sapiens, UniProt P43405, S550Y); kinase activity, inhibitor): 0.056 ± 0.013 µM

CC(=O)N1C[C@H](CCN2CCC(c3c[nH]c4cc(Cl)ccc34)CC2)c2ccccc21
IC50 (Sodium-dependent serotonin transporter (SLC6A4, Homo sapiens, UniProt P31645); inhibitor): 1.48 µM

c1ccc2[nH]c(-c3cscn3)nc2c1
IC50 (Glycogen synthase kinase-3 alpha (GSK3A, Homo sapiens, UniProt P49840); kinase activity, inhibitor, Z'-LYTE): 64.4 µM

Cc1cccc(C)c1NC(=S)N/N=C/c1ccc(N2CCC(O)CC2)cc1
IC50 (CA1; enzyme activity, inhibitor): 0.482 µM

CC(C)C[C@H](NC(=O)[C@H](CC(C)C)NC(=O)[C@H](Cc1ccccc1)NC(=O)CN=[N+]=[N-])C(=O)N[C@H](/C=C/S(C)(=O)=O)Cc1ccc(CN)cc1
IC50 (PSMB6; competitive ABPP; Raji cell lysate): > 10 µM

OC1CCN(c2ccc(/C=N/NC(=S)Nc3ccc(Br)cc3)cc2)CC1
IC50 (CA1; enzyme activity, inhibitor): 0.478 µM

COc1cc2c(cc1OC)C1CC(=O)C(CC(C)C)CN1CC2 (stereo not shown)
IC50 (Synaptic vesicular amine transporter (SLC18A2, Homo sapiens, UniProt Q05940, Y433F); transporter uptake, fluorescence imaging; mutant Y433F, added: 5 µM FFN206): 0.0261 µM
